Experimental data of several laboratories.
A part holds a random share of what one study measured. “And” joins repeats or separate records; there may be more than shown. Positions count from the first letter of the parent shown.
Chain of UniProt O15264 (whole entry, looked up): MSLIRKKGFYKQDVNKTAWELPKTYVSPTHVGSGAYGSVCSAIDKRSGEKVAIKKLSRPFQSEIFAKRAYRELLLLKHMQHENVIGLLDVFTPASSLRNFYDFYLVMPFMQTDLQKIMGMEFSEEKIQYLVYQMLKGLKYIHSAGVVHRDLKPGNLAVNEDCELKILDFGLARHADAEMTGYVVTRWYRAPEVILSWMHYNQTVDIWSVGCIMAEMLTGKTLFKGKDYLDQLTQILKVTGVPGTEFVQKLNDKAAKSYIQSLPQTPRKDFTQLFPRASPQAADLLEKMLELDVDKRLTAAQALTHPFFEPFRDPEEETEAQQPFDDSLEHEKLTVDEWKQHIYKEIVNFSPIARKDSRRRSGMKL
Chain of UniProt Q13131 (whole entry, looked up): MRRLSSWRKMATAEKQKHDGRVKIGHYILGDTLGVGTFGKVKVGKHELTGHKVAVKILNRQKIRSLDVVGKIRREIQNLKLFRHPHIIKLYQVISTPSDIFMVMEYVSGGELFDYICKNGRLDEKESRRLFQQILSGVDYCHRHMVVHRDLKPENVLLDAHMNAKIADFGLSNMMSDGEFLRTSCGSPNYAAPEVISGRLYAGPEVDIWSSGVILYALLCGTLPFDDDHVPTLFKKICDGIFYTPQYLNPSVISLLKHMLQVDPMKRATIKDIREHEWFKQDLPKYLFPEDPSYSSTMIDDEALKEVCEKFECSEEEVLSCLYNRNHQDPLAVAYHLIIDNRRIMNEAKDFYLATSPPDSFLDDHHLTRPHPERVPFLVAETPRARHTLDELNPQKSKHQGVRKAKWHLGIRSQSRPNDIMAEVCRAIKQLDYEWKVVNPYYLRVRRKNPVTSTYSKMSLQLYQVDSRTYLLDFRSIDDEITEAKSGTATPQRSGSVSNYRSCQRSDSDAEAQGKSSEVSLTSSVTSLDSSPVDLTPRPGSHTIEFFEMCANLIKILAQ
Chain of UniProt Q9Y3S1 (whole entry, looked up): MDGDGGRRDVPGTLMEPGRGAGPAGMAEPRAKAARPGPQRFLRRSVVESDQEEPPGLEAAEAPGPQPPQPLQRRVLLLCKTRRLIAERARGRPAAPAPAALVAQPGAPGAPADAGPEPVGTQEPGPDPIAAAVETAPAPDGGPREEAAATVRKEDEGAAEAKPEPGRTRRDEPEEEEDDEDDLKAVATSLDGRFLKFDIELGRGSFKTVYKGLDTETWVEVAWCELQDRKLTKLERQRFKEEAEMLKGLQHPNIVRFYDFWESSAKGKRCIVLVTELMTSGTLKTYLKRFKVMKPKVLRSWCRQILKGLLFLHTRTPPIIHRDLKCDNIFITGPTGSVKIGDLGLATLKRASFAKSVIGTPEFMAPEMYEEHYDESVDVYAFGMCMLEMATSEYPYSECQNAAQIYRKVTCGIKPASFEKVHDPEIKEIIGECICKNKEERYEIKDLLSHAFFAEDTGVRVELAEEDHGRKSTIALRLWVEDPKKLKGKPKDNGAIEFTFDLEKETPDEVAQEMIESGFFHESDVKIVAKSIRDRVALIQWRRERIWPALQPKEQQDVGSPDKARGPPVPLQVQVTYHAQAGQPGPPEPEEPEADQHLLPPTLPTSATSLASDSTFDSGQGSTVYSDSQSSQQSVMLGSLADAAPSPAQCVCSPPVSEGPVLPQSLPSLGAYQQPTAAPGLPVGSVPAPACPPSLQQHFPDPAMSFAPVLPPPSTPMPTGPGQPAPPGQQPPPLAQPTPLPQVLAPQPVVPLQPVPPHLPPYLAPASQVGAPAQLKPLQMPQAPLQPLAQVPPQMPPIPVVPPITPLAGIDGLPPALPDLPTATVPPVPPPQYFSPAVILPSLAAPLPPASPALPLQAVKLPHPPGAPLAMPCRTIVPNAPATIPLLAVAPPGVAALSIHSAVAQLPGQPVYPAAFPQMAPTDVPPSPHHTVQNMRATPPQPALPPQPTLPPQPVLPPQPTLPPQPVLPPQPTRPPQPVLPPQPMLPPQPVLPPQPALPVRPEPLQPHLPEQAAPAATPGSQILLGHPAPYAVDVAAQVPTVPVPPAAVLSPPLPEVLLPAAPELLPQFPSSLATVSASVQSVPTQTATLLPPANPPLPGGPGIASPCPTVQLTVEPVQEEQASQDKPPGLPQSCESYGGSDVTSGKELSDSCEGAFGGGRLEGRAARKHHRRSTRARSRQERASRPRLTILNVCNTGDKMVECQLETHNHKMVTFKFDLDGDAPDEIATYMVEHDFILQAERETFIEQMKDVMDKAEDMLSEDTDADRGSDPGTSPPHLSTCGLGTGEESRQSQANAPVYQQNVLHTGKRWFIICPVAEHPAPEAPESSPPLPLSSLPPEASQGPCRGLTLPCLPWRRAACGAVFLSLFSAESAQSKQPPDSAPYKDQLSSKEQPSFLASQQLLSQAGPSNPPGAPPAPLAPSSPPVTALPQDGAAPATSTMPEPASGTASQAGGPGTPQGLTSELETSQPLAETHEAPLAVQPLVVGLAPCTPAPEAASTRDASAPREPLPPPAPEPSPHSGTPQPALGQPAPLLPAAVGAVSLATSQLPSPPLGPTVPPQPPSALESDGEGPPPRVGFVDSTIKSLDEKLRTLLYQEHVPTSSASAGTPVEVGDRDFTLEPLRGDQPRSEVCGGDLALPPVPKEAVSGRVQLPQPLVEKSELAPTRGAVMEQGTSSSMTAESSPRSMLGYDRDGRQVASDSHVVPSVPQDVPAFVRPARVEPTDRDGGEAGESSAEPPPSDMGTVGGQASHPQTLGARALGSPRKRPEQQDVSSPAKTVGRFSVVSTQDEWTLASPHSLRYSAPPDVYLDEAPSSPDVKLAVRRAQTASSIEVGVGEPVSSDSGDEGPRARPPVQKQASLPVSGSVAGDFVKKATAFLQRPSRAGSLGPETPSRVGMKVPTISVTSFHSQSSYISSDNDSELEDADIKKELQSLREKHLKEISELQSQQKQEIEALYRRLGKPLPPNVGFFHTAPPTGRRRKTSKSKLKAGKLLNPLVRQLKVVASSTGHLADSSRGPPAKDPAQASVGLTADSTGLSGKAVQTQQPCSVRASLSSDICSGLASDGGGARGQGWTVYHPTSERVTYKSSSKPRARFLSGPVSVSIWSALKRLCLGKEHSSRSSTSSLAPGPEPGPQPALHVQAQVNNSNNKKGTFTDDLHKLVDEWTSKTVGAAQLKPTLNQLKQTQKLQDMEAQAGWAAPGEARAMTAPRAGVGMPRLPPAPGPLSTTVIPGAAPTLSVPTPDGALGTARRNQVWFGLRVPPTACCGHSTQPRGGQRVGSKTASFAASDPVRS
Chain of UniProt P54756 (whole entry, looked up): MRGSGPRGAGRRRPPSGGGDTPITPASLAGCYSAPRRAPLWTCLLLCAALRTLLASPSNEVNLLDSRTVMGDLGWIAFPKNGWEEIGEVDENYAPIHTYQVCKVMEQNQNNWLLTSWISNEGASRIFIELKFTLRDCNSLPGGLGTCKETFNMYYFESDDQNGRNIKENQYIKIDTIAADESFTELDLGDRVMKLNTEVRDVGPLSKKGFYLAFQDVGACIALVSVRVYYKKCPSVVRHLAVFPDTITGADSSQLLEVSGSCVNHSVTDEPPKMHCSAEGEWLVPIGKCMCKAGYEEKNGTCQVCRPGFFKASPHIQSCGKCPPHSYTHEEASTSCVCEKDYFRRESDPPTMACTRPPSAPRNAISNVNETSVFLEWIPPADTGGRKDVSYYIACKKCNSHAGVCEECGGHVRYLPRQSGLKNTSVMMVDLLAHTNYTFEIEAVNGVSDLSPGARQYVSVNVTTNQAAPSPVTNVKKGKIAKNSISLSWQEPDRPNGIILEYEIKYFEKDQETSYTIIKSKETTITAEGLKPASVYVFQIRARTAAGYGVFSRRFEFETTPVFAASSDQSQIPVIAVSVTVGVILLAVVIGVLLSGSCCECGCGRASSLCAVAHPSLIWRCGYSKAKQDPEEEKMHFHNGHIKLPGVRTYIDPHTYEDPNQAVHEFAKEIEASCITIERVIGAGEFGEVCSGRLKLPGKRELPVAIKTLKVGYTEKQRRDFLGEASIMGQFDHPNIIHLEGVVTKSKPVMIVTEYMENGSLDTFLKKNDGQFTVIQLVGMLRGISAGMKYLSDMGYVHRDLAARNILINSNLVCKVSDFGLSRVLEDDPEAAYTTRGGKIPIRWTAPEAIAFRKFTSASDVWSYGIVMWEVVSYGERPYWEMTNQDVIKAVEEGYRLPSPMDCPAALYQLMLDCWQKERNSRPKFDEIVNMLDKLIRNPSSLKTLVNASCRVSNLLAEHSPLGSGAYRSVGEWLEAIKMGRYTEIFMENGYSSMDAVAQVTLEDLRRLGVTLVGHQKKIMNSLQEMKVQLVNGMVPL
Chain of UniProt Q9Y243 (whole entry, looked up): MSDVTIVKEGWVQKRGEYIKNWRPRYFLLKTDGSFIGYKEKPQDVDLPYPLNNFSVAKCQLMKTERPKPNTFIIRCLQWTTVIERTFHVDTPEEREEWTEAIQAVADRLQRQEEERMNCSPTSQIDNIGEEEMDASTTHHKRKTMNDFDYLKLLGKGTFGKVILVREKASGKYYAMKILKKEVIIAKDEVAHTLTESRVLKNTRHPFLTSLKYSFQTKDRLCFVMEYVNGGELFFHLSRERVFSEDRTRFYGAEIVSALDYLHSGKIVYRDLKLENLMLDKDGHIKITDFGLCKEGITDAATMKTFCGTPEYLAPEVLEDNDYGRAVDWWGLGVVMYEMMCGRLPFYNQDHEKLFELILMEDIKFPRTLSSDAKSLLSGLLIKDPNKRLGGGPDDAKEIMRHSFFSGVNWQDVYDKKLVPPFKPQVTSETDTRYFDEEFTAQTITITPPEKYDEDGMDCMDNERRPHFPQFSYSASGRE
Chain of UniProt P52564 (whole entry, looked up): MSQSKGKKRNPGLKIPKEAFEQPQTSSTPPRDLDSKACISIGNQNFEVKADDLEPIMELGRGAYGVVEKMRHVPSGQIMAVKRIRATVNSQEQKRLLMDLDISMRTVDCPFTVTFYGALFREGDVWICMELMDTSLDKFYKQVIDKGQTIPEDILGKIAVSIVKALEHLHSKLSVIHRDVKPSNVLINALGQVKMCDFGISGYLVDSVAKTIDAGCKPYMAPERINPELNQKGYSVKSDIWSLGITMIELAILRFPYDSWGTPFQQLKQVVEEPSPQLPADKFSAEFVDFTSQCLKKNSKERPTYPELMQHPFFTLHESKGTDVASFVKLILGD

Sample 1
Compound: N#CC1(c2ccccn2)CCN(Cc2cc(C(=O)N3CCCC3)c(=O)n3ccccc23)CC1
Observed: cell-free assay
Technique: competition with immobilised ligand
Concentration: 1 µM
target	remaining binding [%]
Serine/threonine-protein kinase BRSK2 (BRSK2, Homo sapiens, UniProt Q8IWQ3)	77
Mitogen-activated protein kinase 1 (MAPK1, Homo sapiens, UniProt P28482)	98
Leucine-rich repeat serine/threonine-protein kinase 2 (LRRK2, Homo sapiens, UniProt Q5S007)	100
5'-AMP-activated protein kinase catalytic subunit alpha-1 (PRKAA1, Homo sapiens, UniProt Q13131)	100

Sample 2
SMILES: Cc1ccc(NC(=O)c2ccc(CN3CCN(C)CC3)cc2)cc1Nc1nccc(-c2cccnc2)n1
Observed: enzyme activity
Action: inhibitor
Concentration: 0.5 µM
Reference: control
target	remaining activity
RAC-gamma serine/threonine-protein kinase (AKT3, Homo sapiens, UniProt Q9Y243)	92.4%
Ephrin type-A receptor 5 (EPHA5, Homo sapiens, UniProt P54756)	104%
Serine/threonine-protein kinase WNK2 (WNK2, Homo sapiens, UniProt Q9Y3S1)	102%
Serine/threonine-protein kinase PLK2 (PLK2, Homo sapiens, UniProt Q9NYY3)	104%
Mitogen-activated protein kinase 13 (MAPK13, Homo sapiens, UniProt O15264)	97.2%
Serine/threonine-protein kinase Nek4 (NEK4, Homo sapiens, UniProt P51957)	98.2%
cGMP-dependent protein kinase 1 (PRKG1, Homo sapiens, UniProt Q13976)	86%
Interleukin-1 receptor-associated kinase 4 (IRAK4, Homo sapiens, UniProt Q9NWZ3)	101%
Cyclin-dependent kinase 9, with cyclin T1 (CDK9, Homo sapiens, UniProt P50750)	100%
Dual specificity mitogen-activated protein kinase kinase 6 (MAP2K6, Homo sapiens, UniProt P52564)	96.3%
Mast/stem cell growth factor receptor Kit (KIT, Homo sapiens, UniProt P10721)	49.6%

Sample 3
Target: CEP164, C-terminal peptide (human)
Technique: DHFR complementation, deep sequencing
Matrix: yeast
Notes: single substitutions, model-inferred values
Reference: wild type
Direction: higher = weaker binding
Starting sequence: PDZK1, PDZ domain 2 (human); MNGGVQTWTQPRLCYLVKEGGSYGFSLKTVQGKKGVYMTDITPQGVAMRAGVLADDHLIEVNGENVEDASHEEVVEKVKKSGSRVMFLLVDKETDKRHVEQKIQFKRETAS; partner HNRVKVYRF
Change	binding free energy change
T39R	1.53 kcal/mol
G24D	0.687 kcal/mol
A54S	0.0685 kcal/mol
R97P	0.0986 kcal/mol
E100W	-0.139 kcal/mol
G82M	0.617 kcal/mol
V36S	0.0355 kcal/mol
D56L	0.121 kcal/mol

Other studies, line by line
Compound	test	system	setting	measurement	value
COc1ccc(-c2c(Nc3ccccn3)[nH]c3c(C4=CCCCC4)c(-c4ccccc4)nn3c2=O)cc1	LC-MS/MS	human, plasma	oral, 50 mg once daily	AUC(0-tau)	34900 ng·h/mL and 33000 ng·h/mL
